Assay results gathered from unrelated publications.
Each line is one published result; not all experiments were run side by side.
Target: Calcium/calmodulin-dependent protein kinase kinase 1 (CAMKK1, Homo sapiens, UniProt Q8N5S9)

The inhibition of `CCn1cc(C(=O)O)c(=O)c2c(N)c(F)c(NC3CCCCC3)cc21` is reported as 19.9% (kinase activity; 0.1 µM, together with: ATP at Km).
For `NC(=O)C[C@H]1CCc2sc3ncnc(O[C@H]4CC[C@H](N5CCOCC5)CC4)c3c21`, the inhibition was 4% (enzyme activity, inhibitor; 10 µM).
For `COc1c(Cl)cccc1Nc1c(-c2ccncc2C#C[C@@]2(C)CCCN2C(=O)/C=C/CN(C)C)[nH]c2c1C(=O)NCC2`, the remaining binding was 100% (binding, competition with immobilised ligand; 3 µM).
`CNC(=O)C1CCN(c2cc(C)c(F)cc2NC(=O)c2ccc(-c3cc(O)ccc3C)c(C)c2)CC1` has a remaining binding of 91% (binding, competition with immobilised ligand; 1 µM).
`COc1cc(Nc2nccc(-c3cnn4nc(OC)ccc34)n2)cc(C(F)(F)F)c1` gave a remaining binding of 100% (binding, competition with immobilised ligand; 1 µM).
With `NC(=O)[C@@H](O)C[C@H]1CCc2sc3ncnc(O[C@H]4CC[C@H](N5CCOCC5)CC4)c3c21` the inhibition was 7% (enzyme activity, inhibitor; 10 µM).
The remaining activity of `Nc1ncc(-c2cc(-c3cnn(CC(F)(F)F)c3)ncc2F)nc1C(=O)NC1CNCC(F)C1` (centres unmarked) is reported as 93% (enzyme activity; 1 µM; baseline: DMSO control).
For `C=CC(=O)Nc1cc(-c2nn(C3CCN(CCNC(=O)[C@H](C)CCC45CC6CC(CC(C6)C4)C5)CC3)c3ncnc(N)c23)ccc1Oc1ccccc1`, the inhibition was 13.8% (inhibitor, KiNativ profiling; biochemical; 2 µM).
The remaining binding of `Cc1cnc2nc1Nc1cccc(c1)COC/C=C/COCc1cc(ccc1OCCN1CCOCC1)N2` is reported as 100% (binding; 0.1 µM).
`CN1CCN(Cc2ccc(-c3ccc(CO[C@H]4CCC[C@@H]4NC(=O)c4cc(-c5cnn(C)c5)cnc4N)cc3)cc2)CC1` gave an inhibition of 21% (enzyme activity, inhibitor; 0.1 µM).
For `COc1cc(Nc2nc(C)cc(-c3cnn4nc(OC)ccc34)n2)cc(C(F)(F)F)c1`, the remaining activity was 95% (inhibitor; 1 µM; baseline: control).
With `C=CC(=O)N1CCc2ccc(-n3c(=O)ccc4cnc5ccc(-c6cnn(C)c6)cc5c43)cc21` the remaining binding was 93% (KINOMEscan; 1 µM; baseline: DMSO control).
`O=C(Cc1ccc(OCc2ccccc2)cc1)NC1(C(=O)O)CCN(C(=O)c2ccc(-c3cccc(Cl)c3)cc2)CC1` — result for “activity vs control”: 103% (enzyme activity, inhibitor; 10 µM).
The inhibition of `CN1CC[C@@H](COc2cnc(C#N)cc2-c2ccn3nc(NC(=O)C4CC4)cc3c2)C1` is reported as 1% (enzyme activity, inhibitor; 1 µM).
`CS(=O)(=O)Nc1cccc(-c2csc3cnc(Nc4ccc(N5CCN(CCCCCOc6cccc7c6C(=O)N(C6CCC(=O)NC6=O)C7=O)CC5)cc4)nc23)c1` (centres unmarked) gave an inhibition of -0.586% (probe labelling, inhibitor, KiNativ chemoproteomics; MOLT-4; 1 µM).
`Nc1ncc2c(n1)-c1c([nH]c3ccc(C4=CCOCC4)cc13)CCC2` has a remaining binding of 100% (binding, competition with immobilised ligand; 1 µM).
The inhibition of `C=CC(=O)N1Cc2nc(-c3cc(-c4cc(Cl)cnc4Cl)c(F)cc3F)n(-c3ccncn3)c2C1` is reported as -6.3% (cell-free assay, inhibitor; 1 µM).
`C=CC(=O)N1CCCC(n2c(=O)c3ncccc3n(Cc3ccc(Oc4ccccc4)cc3)c2=O)C1` (centres unmarked) gave a remaining binding of 100% (cell-free assay, competition with immobilised ligand; 1 µM).
With `Cc1ccc(-c2c(/C=C(\C#N)C(=O)NC(C)C)n(CCCO)c3ncnc(N)c23)cc1` the remaining binding was 100% (cell-free assay, competition with immobilised ligand; 1 µM).
`CNC1C[S+]2CC[S+]3CC[S+](C1)[Ru-4]321([N]=C=S)[n]2c3ccc(OC)cc3c3c4c(c5cc(F)c[n+]1c5c32)C(=O)NC4=O` (centres unmarked) has a remaining binding of 100% (KinomeScan; 0.1 µM; baseline: untreated).
For `CCN1CCN(Cc2ccc(C(=O)Nc3ccc(C)c(NCc4cnc5[nH]ccc5c4OC)c3)cc2C(F)(F)F)CC1`, the remaining binding was 100% (binding, competition with immobilised ligand; 1 µM).
`CC(C)=CC1OC(C)(C)C2C=C3C(=O)C(Cl)=CC(O)C3C3C(O)C4OC4C(=O)C132` (centres unmarked) gave a remaining binding of 96% (cell-free assay, competition with immobilised ligand; 10 µM).
For `CNC(=O)C[C@H](Cc1ccc(C#N)cc1)NC(=O)c1cc(-c2ccc(CN[C@H](C)c3ccc(C)cc3)o2)ccc1Cl`, “activity vs control” read 106% (enzyme activity, inhibitor; 1 µM).

Some of these lines once more:
`CC(C)=CC1OC(C)(C)C2C=C3C(=O)C(Cl)=CC(O)C3C3C(O)C4OC4C(=O)C132` (centres unmarked) gave a remaining binding of 96% (cell-free assay, competition with immobilised ligand; 10 µM).
For `CNC(=O)C[C@H](Cc1ccc(C#N)cc1)NC(=O)c1cc(-c2ccc(CN[C@H](C)c3ccc(C)cc3)o2)ccc1Cl`, “activity vs control” read 106% (enzyme activity, inhibitor; 1 µM).
